# Assay results collected from several papers.
# Every numbered part comes from another study and shows a few of its results, in no order. Positions count from the first letter of the parent shown.

# Series 1 — method: DHFR PCA, deep sequencing; sample: yeast; together with: (+)-ABA 1.4 µM; baseline: wild-type fitted maximum; reading: higher = stronger binding
# Target: ABI1, truncated, D143A, DHFR fusion (Arabidopsis thaliana)
# Notes: methotrexate growth selection, single substitutions
# Starting sequence: PYL1, truncated, DHFR fusion (Arabidopsis thaliana); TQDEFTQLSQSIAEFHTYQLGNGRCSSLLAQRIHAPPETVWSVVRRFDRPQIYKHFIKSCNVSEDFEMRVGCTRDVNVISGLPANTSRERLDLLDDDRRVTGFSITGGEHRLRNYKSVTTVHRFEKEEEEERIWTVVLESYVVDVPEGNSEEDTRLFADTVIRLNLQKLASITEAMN; partner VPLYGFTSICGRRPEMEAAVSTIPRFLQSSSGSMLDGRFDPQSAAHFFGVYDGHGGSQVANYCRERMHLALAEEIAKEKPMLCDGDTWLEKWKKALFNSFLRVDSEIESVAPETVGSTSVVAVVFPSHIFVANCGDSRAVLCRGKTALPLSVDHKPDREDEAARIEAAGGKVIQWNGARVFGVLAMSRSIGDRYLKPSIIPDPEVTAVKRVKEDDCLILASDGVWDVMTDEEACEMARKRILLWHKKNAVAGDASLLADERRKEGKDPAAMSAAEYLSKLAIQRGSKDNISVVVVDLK
Change,relative binding score
P83I,0.654%
V161R,4.13%
V44T,-10.7%
N114Q,6.4%
T120H,1.17%
S63K,60.8%
R113D,12.1%
V100P,-7.44%
R49A,50.9%
E64T,48.4%
R111C,7.15%
C72D,56%
L138A,-5.85%
K116V,-4.86%
T119Q,16.3%

# Series 2 — method: universal PBM; molecule type: double-stranded DNA, one strand shown; sample: in vitro; tested at: 600 nM; reading: higher = stronger binding
# Target: Sal-like protein 4, full length isoform A (SALL4, Homo sapiens, UniProt Q9UJQ4, residues 1-1053)
# UniProt Q9UJQ4, sequence (whole entry, looked up): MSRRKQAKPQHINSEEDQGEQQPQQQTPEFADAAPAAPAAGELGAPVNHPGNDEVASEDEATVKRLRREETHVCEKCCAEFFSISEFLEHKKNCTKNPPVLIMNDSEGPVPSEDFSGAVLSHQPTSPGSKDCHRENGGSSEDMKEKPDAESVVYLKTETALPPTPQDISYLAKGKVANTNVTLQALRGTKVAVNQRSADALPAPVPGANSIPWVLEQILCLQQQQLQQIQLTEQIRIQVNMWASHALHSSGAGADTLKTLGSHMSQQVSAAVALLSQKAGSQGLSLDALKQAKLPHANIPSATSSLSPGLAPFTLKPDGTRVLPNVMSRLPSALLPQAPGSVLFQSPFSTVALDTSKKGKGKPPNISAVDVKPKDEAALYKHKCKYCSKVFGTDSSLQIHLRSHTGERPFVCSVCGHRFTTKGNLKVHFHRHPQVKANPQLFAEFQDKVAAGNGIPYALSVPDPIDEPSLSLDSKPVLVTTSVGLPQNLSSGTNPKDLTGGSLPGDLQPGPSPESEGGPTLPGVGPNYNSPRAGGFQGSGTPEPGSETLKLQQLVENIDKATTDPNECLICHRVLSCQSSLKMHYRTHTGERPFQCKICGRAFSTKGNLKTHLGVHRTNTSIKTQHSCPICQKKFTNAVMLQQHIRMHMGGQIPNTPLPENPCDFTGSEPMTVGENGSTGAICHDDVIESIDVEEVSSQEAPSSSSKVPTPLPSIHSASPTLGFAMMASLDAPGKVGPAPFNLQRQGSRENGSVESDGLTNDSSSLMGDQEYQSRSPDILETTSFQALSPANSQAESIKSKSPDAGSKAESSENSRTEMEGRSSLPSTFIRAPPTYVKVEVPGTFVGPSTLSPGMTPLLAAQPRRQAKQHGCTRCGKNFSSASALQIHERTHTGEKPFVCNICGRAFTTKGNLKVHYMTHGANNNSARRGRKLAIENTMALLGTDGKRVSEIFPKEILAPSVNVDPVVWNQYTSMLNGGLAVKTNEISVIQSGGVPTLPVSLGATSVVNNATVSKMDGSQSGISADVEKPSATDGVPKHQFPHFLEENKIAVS
# Notes: 8-mer, flanks averaged, mean of replicates
Strand,E-score
GAGCGGCC,-0.422
CGACAAAC,-0.105
CGTGAAAA,0.132
GGGGATAC,-0.244
CGTTTACA,0.146
AGTTCCCC,-0.218
ACCGCGGC,-0.314
AAGGATCT,-0.035
AAGTGATG,-0.0224
GCCATCGA,-0.15
GTCTTAAA,0.0684
CGTGCCCC,-0.326
CCTCGTCA,0.0207
TACTAAGA,0.127
AATAACAT,0.391
CGCTCCAA,-0.162
AATGCTGC,0.0786
CAGATCCC,-0.204
AAGTTCGC,-0.15
TAACCTGA,0.054
AGGGTCCC,-0.268
GCATGAAA,0.156
AGAGCCCT,-0.173
GCCGCTCA,-0.24

# Series 3 — target: CCNF, cyclin fold, Cln2 fusion (human); method: yeast growth competition, sequencing; sample: yeast; notes: strong parent motif; baseline: not given; reading: higher = stronger binding
# Starting sequence: BRCA2 docking peptide (human); PSIKRNLLNEFDR
Change,normalised enrichment score
N6T,1.07
R13M,2.68
K4L,1.76
L7R,0.888
R5P,1.02
L8Y,2.58
R13F,3.06
S2V,1.77
L7V,0.12
E10P,2.32
E10L,2.48
S2R,2.28
P1L,4.26
K4R,4.97
K4I,2.6
E10Q,1.29
D12P,2.65
S2M,1.49
E10W,2.7
N9G,3.4
S2Q,2.85
K4T,0.861
R5Y,-0.0405
D12M,3.68
I3P,1.17

# Single results of other studies
Molecule,target,assay,system,conditions,how to read,quantity,value
"PhoQ, residues 284 288 289 292 302 303 SLANKL","PhoP, residues 12 14 15 18 19 TPWLV (Escherichia coli, UniProt P23836)","Sort-seq, item: YFP reporter",E. coli,"PhoQ-PhoP variant library, together with: 10 µM Mg2+","baseline: high Mg2+ state, higher = stronger signaling",fold induction,6.51

# Excerpt of the above (series 3):
Change,normalised enrichment score
K4I,2.6
D12P,2.65
K4T,0.861
S2V,1.77
S2R,2.28
I3P,1.17
E10P,2.32
N6T,1.07
